Results of several laboratories.
Each numbered part is a random draw from the data of one study; scales do not carry over between parts. “And” joins repeats or separate records; there may be more than shown.
Sequence of UniProt Q7KZI7 (whole entry, looked up): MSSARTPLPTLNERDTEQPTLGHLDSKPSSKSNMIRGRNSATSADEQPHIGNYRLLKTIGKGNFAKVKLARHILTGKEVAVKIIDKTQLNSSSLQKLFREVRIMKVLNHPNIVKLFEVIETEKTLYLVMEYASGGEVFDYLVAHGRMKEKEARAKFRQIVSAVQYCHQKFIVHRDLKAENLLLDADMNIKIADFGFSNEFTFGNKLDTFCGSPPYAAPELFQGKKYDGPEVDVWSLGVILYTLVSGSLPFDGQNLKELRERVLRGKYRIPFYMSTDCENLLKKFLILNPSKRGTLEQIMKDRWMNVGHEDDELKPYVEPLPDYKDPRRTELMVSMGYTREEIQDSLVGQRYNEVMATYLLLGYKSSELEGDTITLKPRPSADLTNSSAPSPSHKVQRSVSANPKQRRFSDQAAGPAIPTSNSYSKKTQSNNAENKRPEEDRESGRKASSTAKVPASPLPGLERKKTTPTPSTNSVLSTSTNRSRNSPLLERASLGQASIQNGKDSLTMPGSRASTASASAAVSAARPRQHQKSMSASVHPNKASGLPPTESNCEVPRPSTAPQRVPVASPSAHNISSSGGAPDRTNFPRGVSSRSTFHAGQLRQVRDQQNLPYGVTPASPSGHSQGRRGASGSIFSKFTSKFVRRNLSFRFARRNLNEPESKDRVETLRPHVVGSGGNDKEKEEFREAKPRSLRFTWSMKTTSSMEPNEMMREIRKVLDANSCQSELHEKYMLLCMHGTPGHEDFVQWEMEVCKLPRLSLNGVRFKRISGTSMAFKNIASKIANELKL
Sequence of UniProt Q86UE8 (whole entry, looked up): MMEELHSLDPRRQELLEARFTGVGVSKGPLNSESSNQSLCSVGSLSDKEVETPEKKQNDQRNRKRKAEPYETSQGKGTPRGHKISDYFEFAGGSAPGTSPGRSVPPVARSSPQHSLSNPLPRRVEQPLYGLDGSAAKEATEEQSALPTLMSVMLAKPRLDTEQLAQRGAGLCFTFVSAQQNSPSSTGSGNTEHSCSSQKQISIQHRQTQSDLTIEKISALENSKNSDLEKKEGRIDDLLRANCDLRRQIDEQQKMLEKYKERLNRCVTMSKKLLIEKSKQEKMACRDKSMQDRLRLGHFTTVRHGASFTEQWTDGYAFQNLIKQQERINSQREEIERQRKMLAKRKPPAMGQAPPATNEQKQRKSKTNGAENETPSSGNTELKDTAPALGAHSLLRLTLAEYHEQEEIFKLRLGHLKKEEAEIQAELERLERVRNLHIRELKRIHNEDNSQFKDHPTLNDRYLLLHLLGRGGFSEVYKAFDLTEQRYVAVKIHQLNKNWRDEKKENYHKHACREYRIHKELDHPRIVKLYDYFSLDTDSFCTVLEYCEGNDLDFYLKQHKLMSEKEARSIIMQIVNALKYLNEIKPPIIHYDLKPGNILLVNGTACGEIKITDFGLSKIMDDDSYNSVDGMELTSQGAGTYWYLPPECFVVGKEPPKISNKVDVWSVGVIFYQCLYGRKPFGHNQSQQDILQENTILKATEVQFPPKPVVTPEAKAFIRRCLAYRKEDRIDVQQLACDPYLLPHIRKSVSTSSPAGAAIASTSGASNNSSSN
Sequence of UniProt Q13464 (whole entry, looked up): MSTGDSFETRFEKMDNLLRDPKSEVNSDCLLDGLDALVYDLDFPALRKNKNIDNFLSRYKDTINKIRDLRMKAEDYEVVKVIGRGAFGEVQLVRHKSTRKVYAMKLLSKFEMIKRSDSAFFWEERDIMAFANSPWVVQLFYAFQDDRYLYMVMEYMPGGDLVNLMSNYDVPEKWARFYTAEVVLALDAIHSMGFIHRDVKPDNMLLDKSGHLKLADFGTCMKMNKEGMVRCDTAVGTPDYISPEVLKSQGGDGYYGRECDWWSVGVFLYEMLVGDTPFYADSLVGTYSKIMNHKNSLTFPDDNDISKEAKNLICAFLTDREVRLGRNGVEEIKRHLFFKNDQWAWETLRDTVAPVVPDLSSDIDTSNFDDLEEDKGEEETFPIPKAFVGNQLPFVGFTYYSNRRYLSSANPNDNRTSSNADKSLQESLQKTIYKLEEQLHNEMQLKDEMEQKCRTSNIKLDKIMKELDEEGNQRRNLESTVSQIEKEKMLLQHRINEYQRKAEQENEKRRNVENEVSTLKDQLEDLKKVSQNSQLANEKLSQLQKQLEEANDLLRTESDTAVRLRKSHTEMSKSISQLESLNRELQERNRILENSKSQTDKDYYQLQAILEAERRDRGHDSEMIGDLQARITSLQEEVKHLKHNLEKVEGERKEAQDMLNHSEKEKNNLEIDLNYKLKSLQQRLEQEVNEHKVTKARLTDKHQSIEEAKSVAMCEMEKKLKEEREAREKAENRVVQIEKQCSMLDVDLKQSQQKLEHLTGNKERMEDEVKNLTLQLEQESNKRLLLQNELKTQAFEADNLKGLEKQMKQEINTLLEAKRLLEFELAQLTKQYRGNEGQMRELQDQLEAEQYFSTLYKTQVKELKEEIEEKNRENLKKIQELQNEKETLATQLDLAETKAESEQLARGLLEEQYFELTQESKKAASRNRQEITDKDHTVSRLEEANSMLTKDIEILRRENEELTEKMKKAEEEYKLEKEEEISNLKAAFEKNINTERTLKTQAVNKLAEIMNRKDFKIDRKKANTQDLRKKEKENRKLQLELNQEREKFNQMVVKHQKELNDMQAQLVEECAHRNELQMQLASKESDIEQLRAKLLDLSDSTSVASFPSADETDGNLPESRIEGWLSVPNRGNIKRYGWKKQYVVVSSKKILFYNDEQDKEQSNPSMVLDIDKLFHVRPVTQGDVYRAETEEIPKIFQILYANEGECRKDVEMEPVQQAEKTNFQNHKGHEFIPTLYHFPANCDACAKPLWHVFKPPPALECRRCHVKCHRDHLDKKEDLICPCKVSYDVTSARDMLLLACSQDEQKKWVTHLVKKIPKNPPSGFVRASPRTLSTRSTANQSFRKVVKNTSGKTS
Sequence of UniProt Q16539 (whole entry, looked up): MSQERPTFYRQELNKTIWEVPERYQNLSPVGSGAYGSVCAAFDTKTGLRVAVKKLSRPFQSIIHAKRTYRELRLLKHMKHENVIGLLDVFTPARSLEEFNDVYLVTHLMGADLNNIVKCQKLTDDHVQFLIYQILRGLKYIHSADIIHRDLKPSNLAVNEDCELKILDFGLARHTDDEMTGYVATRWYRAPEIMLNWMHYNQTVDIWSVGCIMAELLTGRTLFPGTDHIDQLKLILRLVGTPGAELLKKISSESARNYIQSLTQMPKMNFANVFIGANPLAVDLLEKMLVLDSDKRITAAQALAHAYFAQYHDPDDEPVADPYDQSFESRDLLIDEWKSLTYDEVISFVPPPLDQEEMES
Sequence of UniProt P23458 (whole entry, looked up): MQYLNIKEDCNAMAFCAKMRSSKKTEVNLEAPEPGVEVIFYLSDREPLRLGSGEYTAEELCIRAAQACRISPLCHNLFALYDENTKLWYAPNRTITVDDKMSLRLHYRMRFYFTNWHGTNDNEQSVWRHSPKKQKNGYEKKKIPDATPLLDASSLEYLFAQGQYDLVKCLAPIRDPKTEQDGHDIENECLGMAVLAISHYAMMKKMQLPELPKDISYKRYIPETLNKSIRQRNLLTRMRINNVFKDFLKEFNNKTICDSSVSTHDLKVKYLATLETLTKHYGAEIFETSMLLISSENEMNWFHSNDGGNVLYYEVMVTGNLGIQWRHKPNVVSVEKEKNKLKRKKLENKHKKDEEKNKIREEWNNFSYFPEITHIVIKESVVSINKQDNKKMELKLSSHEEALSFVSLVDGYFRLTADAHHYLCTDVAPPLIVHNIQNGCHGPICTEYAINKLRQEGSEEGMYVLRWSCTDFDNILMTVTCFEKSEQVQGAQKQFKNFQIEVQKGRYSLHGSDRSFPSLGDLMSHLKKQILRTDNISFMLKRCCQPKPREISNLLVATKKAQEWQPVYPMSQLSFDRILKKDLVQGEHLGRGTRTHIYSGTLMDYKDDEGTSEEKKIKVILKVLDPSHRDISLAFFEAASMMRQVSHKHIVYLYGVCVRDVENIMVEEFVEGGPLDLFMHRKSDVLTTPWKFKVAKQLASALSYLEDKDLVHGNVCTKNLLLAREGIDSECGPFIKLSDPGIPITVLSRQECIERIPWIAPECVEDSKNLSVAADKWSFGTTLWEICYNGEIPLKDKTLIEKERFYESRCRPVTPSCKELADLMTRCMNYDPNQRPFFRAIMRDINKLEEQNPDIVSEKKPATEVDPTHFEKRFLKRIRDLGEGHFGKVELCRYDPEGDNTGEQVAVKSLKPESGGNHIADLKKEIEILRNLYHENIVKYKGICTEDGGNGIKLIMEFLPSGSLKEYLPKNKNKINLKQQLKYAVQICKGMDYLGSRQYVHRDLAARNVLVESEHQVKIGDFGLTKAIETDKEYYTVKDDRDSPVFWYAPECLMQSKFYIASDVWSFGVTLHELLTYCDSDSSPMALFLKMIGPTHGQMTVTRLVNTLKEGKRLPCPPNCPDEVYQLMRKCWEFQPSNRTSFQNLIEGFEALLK
Sequence of UniProt P28482 (whole entry, looked up): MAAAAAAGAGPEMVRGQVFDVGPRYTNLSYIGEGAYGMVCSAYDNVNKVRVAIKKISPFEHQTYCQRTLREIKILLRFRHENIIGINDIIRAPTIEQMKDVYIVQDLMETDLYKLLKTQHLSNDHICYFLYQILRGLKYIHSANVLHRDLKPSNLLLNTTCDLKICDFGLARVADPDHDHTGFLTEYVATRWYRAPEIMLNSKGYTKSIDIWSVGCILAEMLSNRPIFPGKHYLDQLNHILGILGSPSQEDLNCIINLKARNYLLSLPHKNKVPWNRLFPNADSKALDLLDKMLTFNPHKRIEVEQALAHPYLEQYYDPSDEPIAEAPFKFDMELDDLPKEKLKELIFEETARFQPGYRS

Sample 1 — effect on: cell-free assay; method: competition with immobilised ligand; tested at: 1 µM
SMILES: CCC(=O)N[C@@H]1CC[C@H](C(=O)N(C)c2ccc(-c3nc4ccccc4o3)cc2)C1
target	remaining binding [%]
Serine/threonine-protein kinase NIM1 (NIM1K, Homo sapiens, UniProt Q8IY84)	99
Tyrosine-protein kinase JAK1, JH1 (JAK1, Homo sapiens, UniProt P23458)	100
Serine/threonine-protein kinase MARK2 (MARK2, Homo sapiens, UniProt Q7KZI7)	100

Sample 2 — effect on: enzyme activity; action: inhibitor; tested at: 0.5 µM; reference: control
Compound: N#CC(c1ccnc(NCCc2cccnc2)n1)c1nc2ccccc2s1 (centres unmarked)
target	remaining activity [%]
Myosin-IIIb (MYO3B, Homo sapiens, UniProt Q8WXR4)	96.1
Hepatocyte growth factor receptor (MET, Homo sapiens, UniProt P08581)	105
Ribosomal protein S6 kinase alpha-4 (RPS6KA4, Homo sapiens, UniProt O75676)	107
Mitogen-activated protein kinase 14 (MAPK14, Homo sapiens, UniProt Q16539)	89.1
Rho-associated protein kinase 1 (ROCK1, Homo sapiens, UniProt Q13464)	93.2
Mitogen-activated protein kinase 1 (MAPK1, Homo sapiens, UniProt P28482)	93.5
Dual specificity protein kinase CLK4 (CLK4, Homo sapiens, UniProt Q9HAZ1)	43.8
Serine/threonine-protein kinase Nek3 (NEK3, Homo sapiens, UniProt P51956)	87.9
Tyrosine-protein kinase TXK (TXK, Homo sapiens, UniProt P42681)	49.3
Serine/threonine-protein kinase tousled-like 2 (TLK2, Homo sapiens, UniProt Q86UE8)	102
RAC-beta serine/threonine-protein kinase (AKT2, Homo sapiens, UniProt P31751)	104
Serine/threonine-protein kinase MARK2 (MARK2, Homo sapiens, UniProt Q7KZI7)	97.9
Serine/threonine-protein kinase DCLK2 (DCLK2, Homo sapiens, UniProt Q8N568)	96

Sample 3
SMILES: COc1cc(C(=O)N2CCC(N3CCN(C)CC3)CC2)ccc1Nc1ncc2c(n1)N(C)c1ccccc1C(=O)N2C
target	assay	test system	conditions	inhibition
FYN (mouse)	probe labelling, KiNativ ATP probe	mouse brain lysate	0.1 µM, LYS1 labelled site	-4.6% and 2.3%
ULK3 mouse	KiNativ profiling	mouse brain lysate	1 µM, LYS2 site, added: ADP acyl phosphate probe	-8.5%
CSK (human)	probe labelling, KiNativ ADP probe	human PBMC lysate	concentration not given, LYS1 labelled site	3.9%
PKD2 human	KiNativ profiling	human PBMC	0.1 µM, LYS1 site, added: ADP acyl phosphate probe	-1.6%

Sample 4 — cell line: mouse MPNST tumor cells; method: high-content immunofluorescence imaging; measured: nuclear SOX9; tested at: 10 µM; time: 12 h; setting: mean of 2 replicates; reference: DMSO control; direction: higher = more nuclear SOX9
SMILES	nuclear SOX9 intensity
CC1(C)S[C@@H]2[C@H](NC(=O)[C@H](N)c3ccc(O)cc3)C(=O)N2[C@H]1C(=O)O	92.2 % of DMSO
CC(C)(N)c1ncc(-c2ccc(OC(F)(F)F)cc2)[nH]1	126 % of DMSO
Cc1c(-c2ccc(-c3ccccc3F)cc2)nc2ccc(F)cc2c1C(=O)O	122 % of DMSO
O=C(NCCCCN1CCOCC1)c1cc2ccccc2o1	94.7 % of DMSO
O=c1c(-c2ccc(O)cc2)coc2cc(O)ccc12	107 % of DMSO
O=C(OCCOCCO)c1ccccc1Nc1cccc(C(F)(F)F)c1	107 % of DMSO
CSc1nc2cc(Cl)c(Oc3cccc(Cl)c3Cl)cc2[nH]1	119 % of DMSO
Cc1cc(NC(=O)Nc2ccc(N(C)C)cc2)c2cc(F)cc(F)c2n1	136 % of DMSO

Further values, each from its own experiment
SMILES	species	dose	setting	quantity	value
CC(C)n1cnc(-c2ccc(F)cc2)c1-c1ncc(C(=O)Nc2ccc(N3CCN(C)CC3)cc2)[nH]1	IPF patients	30 mg once daily	adverse event	Haemoptysis incidence	0%

Excerpt of the above (sample 2):
target	remaining activity [%]
RAC-beta serine/threonine-protein kinase (AKT2, Homo sapiens, UniProt P31751)	104
Hepatocyte growth factor receptor (MET, Homo sapiens, UniProt P08581)	105
